Experimental data pooled from the literature.
Compare with care: the assays were run in different laboratories. “And” joins repeats or separate records; there may be more than shown. Numbers after ± are the reported error.

| Compound | assay | system | setting | how to read | endpoint | result |
| --- | --- | --- | --- | --- | --- | --- |
| CSCC[C@@H]1NC(=O)[C@@H]2CSSC[C@H](NC(=O)[C@H](CO)NC(=O)[C@H](C)N)C(=O)N[C@@H](CCCNC(=N)N)C(=O)N[C@@H]([C@@H](C)O)C(=O)N3CCC[C@H]3C(=O)N[C@@H](CCCCN)C(=O)N[C@@H](CC(=O)O)C(=O)N[C@H]3CSSC[C@H](NC(=O)[C@H](CCCCN)NC(=O)[C@H](CCCNC(=N)N)NC(=O)[C@H](CC(N)=O)NC1=O)C(=O)N[C@@H](CCCCN)C(=O)N[C@H]1CSSC[C@H](NC(=O)[C@@H]4CCCN4C(=O)[C@H](CC(=O)O)NC(=O)[C@H](C)NC3=O)C(=O)N[C@@H](C)C(=O)N[C@@H](CCCCN)C(=O)N[C@@H](CCC(=O)O)C(=O)N[C@@H]([C@@H](C)O)C(=O)NCC(=O)N[C@@H](CSSC[C@@H](C(N)=O)NC(=O)[C@H](CCCNC(=N)N)NC(=O)[C@H](CC(N)=O)NC1=O)C(=O)N1CCC[C@H]1C(=O)N[C@@H](Cc1ccc(O)cc1)C(=O)NCC(=O)N[C@@H](CCCCN)C(=O)N2 | – | DA rat pristane-induced arthritis, serum | subcutaneous, 0.1 mg/kg every other day, 21 days | – | Sodium | 130 mmol/L |
| COc1cc(NC(=O)C(=O)c2c(C)n(Cc3ccc(Cl)cc3)c3ccc(C)cc23)ccn1 | – | cynomolgus monkey, female, plasma | intravenous, 1 mg/kg | – | CL | 8.16 mL/min/kg and 6.39 mL/min/kg and 20.2 mL/min/kg and 10.2 mL/min/kg and 9.69 mL/min/kg |
| COc1cc2c3c(c4cc(OC)c(OC)cc4c2cc1OC)C[N+]1([O-])CCCC1C3 (stereo not shown) | – | swine cells | 24 (unit not given) | – | CC50 | > 50 µM |
| COC(=O)C[C@](O)(CCCC(C)(C)OC(C)=O)C(=O)O[C@@H]1C(OC)=C[C@]23CCCN2CCc2cc4c(cc2[C@H]13)OCO4 | – | CD1 mouse, spleen | subcutaneous, 1 mg/kg, 8 h, below quantification limit 1.00 ng/mL | – | tissue concentration | not detected |
| C[C@@H]1CC[C@H]2[C@@H](C)CO[C@@H]3O[C@@]4(C)CC[C@@H]1[C@]32OO4 | item: compound | rat, plasma | 50.0 ng/mL spiked, 30 days, long-term storage at -80 °C | – | measured concentration | 48.7 ± 1.22 ng/mL |
| C[C@H]1N=C(c2ccccc2F)c2cc(Br)ccc2-n2cnc(C(=O)OC3O[C@H](C(=O)O)[C@@H](O)[C@H](O)[C@H]3O)c21 (stereo partly shown) | – | Swiss Webster mouse | intraperitoneal, 750 µg of parent drug, 0 to 48 h | reference: dose | excretion in urine and feces | 3.1 ± 1.4% |
| [2H]C([2H])([2H])C([2H])([2H])C([2H])([2H])OC(C(=O)OC1CCNCC1)(c1ccccc1)c1ccccc1 | item: acne | healthy Japanese male | oral, 12 mg, 16 days, multiple ascending dose | – | adverse events | 14.3% |
| CC(C)[C@H](NC(=O)CNC(=O)[C@H](CCC(N)=O)NC(=O)[C@H](C)N)C(=O)O | – | human | 1 mg/kg single dose | – | discontinuation due to adverse events | 0% |
| CCCC[C@H]1C(=O)N(C)[C@@H](CCCC)C(=O)N[C@@H](CCCNC(=O)CN2CCN(CC(=O)O)CCN(CC(=O)O)CCN(CC(=O)O)CC2)C(=O)N[C@H](C(=O)NCC(N)=O)CSCC(=O)N[C@@H](Cc2ccc(O)cc2)C(=O)N(C)[C@@H](C)C(=O)N[C@@H](CC(N)=O)C(=O)N2CCC[C@H]2C(=O)N[C@@H](Cc2c[nH]cn2)C(=O)N[C@@H](CC(C)C)C(=O)N(C)CC(=O)N[C@@H](Cc2c[nH]c3ccccc23)C(=O)N[C@@H](CO)C(=O)N[C@@H](Cc2c[nH]c3ccccc23)C(=O)N1C [gallium-68 labelled] | static PET | NOD/SCID mice, CHO-hPD-L1 xenograft, CHO-hPD-L1 tumour | intravenous, 1 h post injection | – | tumour uptake | 5.93 ± 0.45 %ID/g |
| CC[C@H](C)[C@H](NC(=O)CN)C(=O)N[C@@H](CCCNC(=N)N)C(=O)N[C@@H](CCCCN)C(=O)N[C@@H](Cc1c[nH]c2ccccc12)C(=O)N[C@@H](Cc1ccccc1)C(=O)N[C@@H](CCCCN)C(=O)N[C@@H](CCCCN)C(=O)N[C@@H](C)C(=O)N[C@@H](C)C(=O)N[C@@H](Cc1c[nH]cn1)C(=O)N[C@H](C(=O)NCC(=O)N[C@@H](CCCCN)C(=O)N[C@@H](CCCCN)C(=O)N[C@H](C(=O)NCC(=O)N[C@@H](CCCCN)C(=O)N[C@H](C(=O)N[C@@H](C)C(=O)N[C@@H](CC(C)C)C(=O)N[C@@H](CC(N)=O)C(=O)N[C@@H](C)C(=O)N[C@@H](Cc1ccc(O)cc1)C(=O)N[C@@H](CC(C)C)C(N)=O)C(C)C)C(C)C)C(C)C | – | zebrafish embryos | 1 h, 4, 28, 52 hpf | – | acute toxic concentration | 5 to 25 µg/mL |
| CCNc1cc2[o+]c3cc(NCC)c(C)cc3c(-c3ccccc3C(=O)OCCOCC[18F])c2cc1C | – | rat, lung | 15 min | – | tissue uptake | 1.08 ± 0.34 %ID/g |
| CC[C@H](C)C(=O)N1CCC(NC(=O)Nc2ccc(OC(F)(F)F)c(F)c2)CC1 | – | healthy volunteers | oral, 8 mg single dose, 14 (unit not given) | – | subjects with dyspnoea TEAE | 0% |
| [11CH3]n1c(=O)n(CCCO)c(=O)c2c1nc(Oc1cccc(OC(F)(F)F)c1)n2Cc1ccc(Cl)cc1 | ex vivo biodistribution | Sprague Dawley rat, thymus | 30 min post injection | – | tracer uptake | 0.63 ± 0.06 %ID/g |
| Cc1ccc(OCC(=O)N(Cc2cccs2)c2ccn[nH]2)cc1 | – | Crl:CD(SD) rat, bred female | oral, 1000 mg/kg/day, mean per litter, developmental toxicity | – | fetal weight | 5.7 g |
| CC(=CCC(O)C(C)=Cc1csc(C)n1)CC=CC(C)C(O)C(C)C(=O)C(C)(C)C(O)CC(=O)O (stereo not shown) | – | human, plasma | intravenous infusion, 8.5 mg/m2 KOS-1584, 3 h infusion, cycle 1 | reference: metabolite over KOS-1584 | AUC ratio | 6.62 ± 1.69% |
| CCCCCCCCCCCCC(=O)O.O=C1CCCC2C3CCCN4CCCC(CN12)C34 (stereo not shown) | – | water | concentration not given, 303.15 K | – | critical aggregation concentration | 0.00097 mol/kg |
| CC1=CC=c2ccc3c4c2[N]1[Re](=[C]=O)(=[C]=O)(=[C]=O)([C]#[N+]c1cc(C)cc(C)c1)[N]4C(C)=CC=3.O=S(=O)([O-])C(F)(F)F | – | PBS, up to 1% DMSO | pH 7.4, air-equilibrated | – | emission maximum | 504 nm |
| CC(C)C[C@@H](NC(=O)[C@@H](Cc1ccccc1)NC(=O)[C@H](N)Cc1ccccc1)C(=O)N[C@H](CCCCN)C(=O)N1CCC(N)(C(=O)O)CC1 | – | human, plasma | intravenous, 5 and 15 µg/kg | – | terminal half-life | 2 h |
| CCCCCCCC(=O)SCC/C=C/[C@@H]1CC(=O)NCc2nc(cs2)C2=N[C@@](C)(CS2)C(=O)N[C@@H](C(C)C)C(=O)N1 | – | female NIH Swiss mice | intravenous bolus, 5 mg/kg, two-compartment model | – | clearance | 111 mL/min/kg |
| COc1cc(-c2nc3ccccc3s2)cc(CN(C)Cc2ccccn2)c1O | Alamar Blue | Neuro2A, mouse | 2 µM, 40 h | – | viability | 77 ± 2% |
| COc1cc2ncnc(Oc3cccc(N[11C](=O)Nc4cc(C(C)(C)C(F)(F)F)on4)c3)c2cc1OC | radio-HPLC | Balb/c nude mice, urine | intravenous, 30 min | reference: radioactivity | intact compound | 1.98 ± 0.79% |
| CC(C)C[C@@H](N)C(=O)NCC(=O)N[C@H](C)C(=O)N[C@H](CO)C(=O)N[C@H](Cc1c[nH]c2ccccc12)C(=O)N[C@H](Cc1c[nH]cn1)C(=O)N[C@H](CCCNC(=N)N)C(=O)N1CCC[C@@H]1C(=O)N[C@H](CC(=O)O)C(=O)N[C@H](CCCCN)C(=O)N[C@H](CS)C(=O)N[C@H](CS)C(=O)N[C@H](CC(C)C)C(=O)NCC(=O)N[C@H](Cc1ccc(O)cc1)C(=O)N[C@H](CCC(N)=O)C(=O)N[C@H](CCCCN)C(=O)N[C@H](CCCNC(=N)N)C(=O)N1CCC[C@@H]1C(=O)N[C@H](CC(C)C)C(=O)N1CCC[C@@H]1C(N)=O | LC-MS/MS | rat plasma | 5000 ng/mL, 12 h, 25 °C, room temperature before extraction | reference: nominal | accuracy | 114% |

Excerpt of the above:
| Compound | assay | system | setting | how to read | endpoint | result |
| --- | --- | --- | --- | --- | --- | --- |
| CSCC[C@@H]1NC(=O)[C@@H]2CSSC[C@H](NC(=O)[C@H](CO)NC(=O)[C@H](C)N)C(=O)N[C@@H](CCCNC(=N)N)C(=O)N[C@@H]([C@@H](C)O)C(=O)N3CCC[C@H]3C(=O)N[C@@H](CCCCN)C(=O)N[C@@H](CC(=O)O)C(=O)N[C@H]3CSSC[C@H](NC(=O)[C@H](CCCCN)NC(=O)[C@H](CCCNC(=N)N)NC(=O)[C@H](CC(N)=O)NC1=O)C(=O)N[C@@H](CCCCN)C(=O)N[C@H]1CSSC[C@H](NC(=O)[C@@H]4CCCN4C(=O)[C@H](CC(=O)O)NC(=O)[C@H](C)NC3=O)C(=O)N[C@@H](C)C(=O)N[C@@H](CCCCN)C(=O)N[C@@H](CCC(=O)O)C(=O)N[C@@H]([C@@H](C)O)C(=O)NCC(=O)N[C@@H](CSSC[C@@H](C(N)=O)NC(=O)[C@H](CCCNC(=N)N)NC(=O)[C@H](CC(N)=O)NC1=O)C(=O)N1CCC[C@H]1C(=O)N[C@@H](Cc1ccc(O)cc1)C(=O)NCC(=O)N[C@@H](CCCCN)C(=O)N2 | – | DA rat pristane-induced arthritis, serum | subcutaneous, 0.1 mg/kg every other day, 21 days | – | Sodium | 130 mmol/L |
